Measured values collected from several papers.
Compare with care: the assays were run in different laboratories. “And” joins repeats or separate records; there may be more than shown. ± gives the spread as reported.
Organism: Plasmodium falciparum

NCCNC(=O)c1cc2c([nH]c3ccccc32)c(-c2ccc(C(F)(F)F)cc2)n1
EC50 (SYBR Green I; Dd2; 72 h, asexual blood stage): 95 nM and ~100 nM

CS(=O)(=O)Cc1onc(-c2cccc(Cl)c2)c1-c1ccnc(N[C@@H]2CCN(Cc3nccs3)C2)n1
EC50 (parasite growth; 3D7 A10; 72 h, asexual blood stage): 9490 ± 2130 nM

CCOc1ccc2cc(-c3nn(CC4CCNCC4)c4ncnc(N)c34)ccc2c1
EC50 (gametocyte exflagellation, inhibitor; wild type): < 40 nM

O=C(NCCNCCO)c1cc2c([nH]c3ccccc32)c(-c2cc(Cl)c(Cl)c(Cl)c2)n1
EC50 (SYBR Green I; Dd2; 72 h, asexual blood stage): 74 ± 18 nM

CNC(=O)[C@@H]1Cc2c([nH]c3ccccc23)[C@@H](c2ccc(F)cc2Cl)N1
IC50 (parasite growth; Dd2 (MRA-150)): 506 ± 45 nM

O=C(c1ccccc1)N(O)CCCP(=O)(O)O
IC50 (parasite growth; 3D7): > 356000 nM

CCOc1ccc2cc(-c3nn(CC4CCNCC4)c4ncnc(N)c34)ccc2n1
EC50 (gametocyte exflagellation, inhibitor; wild type): < 40 nM

CC(=O)N1CCC[C@@H]1C(=O)N[C@@H](C)C(=O)N[C@@H](Cc1ccccc1)B(O)O
selectivity ratio (HepG2 cells, 3D7; 72 h; reference: HepG2 over 3D7): 49 fold

CNCCNC(=O)c1cc2c([nH]c3ccccc32)c(-c2cc(Cl)c(Cl)c(Cl)c2)n1
EC50 (SYBR Green I; Dd2; 72 h, asexual blood stage): 54 ± 8 nM

COCCCNc1cc(C(=O)NC2CC3CCC(C2)N3c2ccc(C(=O)NCc3ccccc3)cn2)ccc1C(N)=O (stereo not shown)
sensitising concentration (3D7; asexual blood stage, added: bortezomib): 250 to 1000 nM

A few entries again:
O=C(NCCNCCO)c1cc2c([nH]c3ccccc32)c(-c2cc(Cl)c(Cl)c(Cl)c2)n1
EC50 (SYBR Green I; Dd2; 72 h, asexual blood stage): 74 ± 18 nM
